Results collected from several papers.
Numbered parts are unrelated; each lists some results of a single study. Positions count from the first letter of the parent shown.

Sample 1
Target: Prothrombin, mature alpha-thrombin (F2, Homo sapiens, UniProt P00734)
Technique: aptamer microarray, sandwich
Molecule type: DNA with 2'F-ANA
Medium: in vitro
Concentration: 200 nM
Notes: whole 15-mer aptamer, many near background
Together with: Cy3 exosite-II aptamer, 400 nM
Direction: higher = stronger binding
Strand: GGTTGGTGTGGTTGG
Modification	mean fluorescence intensity
2'F-ANA at 1 2 7 8 12 13	392 a.u.
2'F-ANA at 2 3 5 7 8 9 12 13 15	158 a.u.
2'F-ANA at 1 2 3 6 7 9 10 12 13	72 a.u.
2'F-ANA at 1 3 4 6 7 10 11 14 15	64.2 a.u.
2'F-ANA at 2 5 8 10 14 15	70.7 a.u.
2'F-ANA at 1 2 3 14 15	70.4 a.u.
2'F-ANA at 2 3 5 6 7 8 9 10 11	52.9 a.u.
2'F-ANA at 4 5 8 9 10 11 14	43.9 a.u.

Sample 2
Target: Fragile X messenger ribonucleoprotein 1, C-terminal low-complexity region (Fmr1, Mus musculus, UniProt P35922)
Technique: RNA Bind-n-Seq
Molecule type: RNA
Medium: in vitro
Concentration: 200 nM
Notes: whole 134-nt RNA, ends assumed
Together with: 150 mM LiCl
Reference: input library
Direction: higher = stronger binding
Library: 7-deaza-guanosine replaces G
Constant ends, left off below: GGGAGUUCUACAGUCCGACGAUC … UGGAAUUCUCGGGUGUCAAGG
Strand	log2 enrichment
GUCCUGUGCUACACAUCGUAUGUACCGAAUCGGGUUUUUGGGUUUUUGGUUUUUGGGGAAAGUAUUAUGUUACGCCGUUCGGAUCUGCAC	-1.49
UCAAGUCCUGUGCUACACAUCGUAUGUACCGAAUCGGCCGGGGCCGGGCCGGGGAAAGUAUUAUGUUACGCCGUUCGGAUCUGCACUUCC	-0.316
AGUCCUGUGCUACACAUCGUAUGUACCGAAUCGGGUUUGGGAAAAAGGGAAAAAGGGAAAGUAUUAUGUUACGCCGUUCGGAUCUGCACU	-1.37
GCAGGAAGUAAAAACAAACGGAAAUGCUUCGGAUAGUGGCAGGGGUGGGGGUUGCUAAGGAAAGGGUGGGAUGGGAGUGGGUAAAGAGUU	1.28
AGUCCUGUGCUACACAUCGUAUGUACCGAAUCGGGGAAAAAGGAAAAAGGAAAAAGGAAAGUAUUAUGUUACGCCGUUCGGAUCUGCACU	-1.44
GUCCUGUGCUACACAUCGUAUGUACCGAAUCGGGCCCCCCGGGCCCCCCGGCCCCCCGGAAAGUAUUAUGUUACGCCGUUCGGAUCUGCA	0.894
UCCUCAAGUCCUGUGCUACACAUCGUAUGUACCGAAUCGGUGGAAAGGAGGAAAGUAUUAUGUUACGCCGUUCGGAUCUGCACUUCCAGC	-0.493
UCCUGUGCUACACAUCGUAUGUACCGAAUCGGAAAAAAGGAAAAAAGGGGAAAAAAGGGAAAGUAUUAUGUUACGCCGUUCGGAUCUGCA	-0.763

Other studies, line by line
P1: viral docking peptide; KGVKRKLFAEDSS; partner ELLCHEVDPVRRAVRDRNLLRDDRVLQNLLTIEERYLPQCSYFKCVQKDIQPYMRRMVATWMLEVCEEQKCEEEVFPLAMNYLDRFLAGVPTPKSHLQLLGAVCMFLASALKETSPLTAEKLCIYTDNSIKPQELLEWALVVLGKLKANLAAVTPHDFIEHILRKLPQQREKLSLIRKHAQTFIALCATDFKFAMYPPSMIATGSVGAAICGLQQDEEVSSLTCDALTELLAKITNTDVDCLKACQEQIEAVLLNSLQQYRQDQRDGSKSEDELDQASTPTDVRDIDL
P2: PafA, mature enzyme, eGFP fusion (Elizabethkingia meningoseptica, UniProt Q9KJX5); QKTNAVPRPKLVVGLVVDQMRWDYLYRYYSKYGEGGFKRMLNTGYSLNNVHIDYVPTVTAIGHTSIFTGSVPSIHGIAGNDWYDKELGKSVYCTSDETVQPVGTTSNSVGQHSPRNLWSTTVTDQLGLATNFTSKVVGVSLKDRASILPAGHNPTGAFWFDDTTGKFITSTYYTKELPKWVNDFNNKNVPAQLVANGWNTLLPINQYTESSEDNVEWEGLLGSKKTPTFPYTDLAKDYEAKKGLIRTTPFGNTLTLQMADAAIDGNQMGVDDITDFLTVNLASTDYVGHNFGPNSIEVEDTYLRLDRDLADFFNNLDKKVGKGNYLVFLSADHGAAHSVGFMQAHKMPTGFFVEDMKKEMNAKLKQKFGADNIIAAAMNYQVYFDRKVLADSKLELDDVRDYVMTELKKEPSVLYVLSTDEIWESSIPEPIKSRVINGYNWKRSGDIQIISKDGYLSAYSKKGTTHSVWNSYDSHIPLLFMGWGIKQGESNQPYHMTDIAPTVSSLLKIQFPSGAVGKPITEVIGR
Substitution	target	assay	system	setting	how to read	quantity	result
P1 L7F	CCND2, cyclin fold, Cln2 fusion (human)	yeast growth competition, sequencing	yeast	weak parent motif	reference: not given, higher = stronger binding	normalised enrichment score	0.255
P2 L479V	inorganic phosphate, free oxyanion	microfluidic competitive inhibition	in vitro, cell-free expressed	not given, derived from inhibition constants, unchanged parent 615000 nM	lower = stronger binding	phosphate dissociation constant	680 µM

A few entries again (sample 2):
Strand	log2 enrichment
UCCUCAAGUCCUGUGCUACACAUCGUAUGUACCGAAUCGGUGGAAAGGAGGAAAGUAUUAUGUUACGCCGUUCGGAUCUGCACUUCCAGC	-0.493
